{"data": "Measurements from different studies", "note": "Parts stem from different laboratories: compare values within a part only. Several values in a cell are separate wells, animals, samples, runs or records. pIC50: −log10 of the molar value.", "UniProt Q13705, sequence (whole entry, looked up)": "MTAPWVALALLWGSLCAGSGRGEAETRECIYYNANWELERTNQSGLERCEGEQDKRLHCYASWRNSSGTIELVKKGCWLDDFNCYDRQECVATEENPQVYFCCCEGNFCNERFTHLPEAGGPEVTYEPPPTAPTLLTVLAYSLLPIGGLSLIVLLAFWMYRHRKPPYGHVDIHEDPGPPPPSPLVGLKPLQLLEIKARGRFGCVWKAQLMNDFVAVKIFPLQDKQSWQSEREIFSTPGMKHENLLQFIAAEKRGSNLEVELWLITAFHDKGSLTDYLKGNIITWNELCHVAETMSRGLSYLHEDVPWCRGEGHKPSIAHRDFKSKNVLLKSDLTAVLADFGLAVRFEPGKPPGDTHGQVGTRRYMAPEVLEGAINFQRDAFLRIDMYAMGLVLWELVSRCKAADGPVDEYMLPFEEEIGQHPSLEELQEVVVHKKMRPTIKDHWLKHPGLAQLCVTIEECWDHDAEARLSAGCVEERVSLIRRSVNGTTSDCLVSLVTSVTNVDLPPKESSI", "UniProt Q9BYP7, sequence (whole entry, looked up)": "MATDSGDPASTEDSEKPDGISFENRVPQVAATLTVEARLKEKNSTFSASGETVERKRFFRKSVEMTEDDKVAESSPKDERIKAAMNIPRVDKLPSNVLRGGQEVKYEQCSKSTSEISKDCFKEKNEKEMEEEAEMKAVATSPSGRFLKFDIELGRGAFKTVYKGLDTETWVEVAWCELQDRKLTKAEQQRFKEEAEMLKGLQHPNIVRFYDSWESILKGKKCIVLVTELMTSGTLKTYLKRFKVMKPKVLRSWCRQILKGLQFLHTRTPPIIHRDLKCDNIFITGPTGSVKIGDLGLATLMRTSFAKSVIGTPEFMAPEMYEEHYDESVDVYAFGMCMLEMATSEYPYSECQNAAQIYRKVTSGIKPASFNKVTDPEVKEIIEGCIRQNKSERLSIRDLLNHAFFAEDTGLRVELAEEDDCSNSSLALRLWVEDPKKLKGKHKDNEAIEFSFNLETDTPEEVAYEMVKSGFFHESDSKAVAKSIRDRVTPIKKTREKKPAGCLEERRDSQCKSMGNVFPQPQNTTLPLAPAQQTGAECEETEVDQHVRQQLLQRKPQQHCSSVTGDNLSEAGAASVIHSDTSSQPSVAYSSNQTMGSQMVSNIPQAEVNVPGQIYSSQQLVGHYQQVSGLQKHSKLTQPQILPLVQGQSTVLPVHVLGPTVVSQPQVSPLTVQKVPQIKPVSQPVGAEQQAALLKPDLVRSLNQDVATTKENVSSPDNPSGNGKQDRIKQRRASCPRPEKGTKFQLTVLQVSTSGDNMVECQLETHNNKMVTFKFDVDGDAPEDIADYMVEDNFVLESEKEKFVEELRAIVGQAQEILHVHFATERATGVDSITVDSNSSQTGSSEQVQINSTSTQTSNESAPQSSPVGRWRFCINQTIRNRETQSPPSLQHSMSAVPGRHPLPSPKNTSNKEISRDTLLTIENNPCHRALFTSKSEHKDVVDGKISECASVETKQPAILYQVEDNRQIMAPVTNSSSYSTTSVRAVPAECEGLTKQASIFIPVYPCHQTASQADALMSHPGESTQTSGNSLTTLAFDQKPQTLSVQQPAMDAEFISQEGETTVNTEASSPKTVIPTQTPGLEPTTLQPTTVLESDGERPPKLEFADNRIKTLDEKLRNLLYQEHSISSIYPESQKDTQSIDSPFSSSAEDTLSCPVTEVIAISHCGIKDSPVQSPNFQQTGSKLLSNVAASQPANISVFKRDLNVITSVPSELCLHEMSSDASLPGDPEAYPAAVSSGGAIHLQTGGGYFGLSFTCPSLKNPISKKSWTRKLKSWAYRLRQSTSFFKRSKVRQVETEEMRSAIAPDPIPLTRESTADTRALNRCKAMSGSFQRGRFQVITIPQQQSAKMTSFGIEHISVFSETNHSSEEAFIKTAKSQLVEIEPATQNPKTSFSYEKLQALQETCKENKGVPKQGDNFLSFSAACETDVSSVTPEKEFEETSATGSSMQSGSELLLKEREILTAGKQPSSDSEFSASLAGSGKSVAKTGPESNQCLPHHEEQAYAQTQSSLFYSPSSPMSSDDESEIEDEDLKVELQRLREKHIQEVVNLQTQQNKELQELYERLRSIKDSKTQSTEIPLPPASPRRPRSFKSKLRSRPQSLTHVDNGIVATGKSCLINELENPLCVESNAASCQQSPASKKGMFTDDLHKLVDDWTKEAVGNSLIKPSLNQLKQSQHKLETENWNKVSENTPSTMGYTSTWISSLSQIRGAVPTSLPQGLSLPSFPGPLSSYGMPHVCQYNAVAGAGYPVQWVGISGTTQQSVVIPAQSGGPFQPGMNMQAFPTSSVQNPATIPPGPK", "UniProt P42680, sequence (whole entry, looked up)": "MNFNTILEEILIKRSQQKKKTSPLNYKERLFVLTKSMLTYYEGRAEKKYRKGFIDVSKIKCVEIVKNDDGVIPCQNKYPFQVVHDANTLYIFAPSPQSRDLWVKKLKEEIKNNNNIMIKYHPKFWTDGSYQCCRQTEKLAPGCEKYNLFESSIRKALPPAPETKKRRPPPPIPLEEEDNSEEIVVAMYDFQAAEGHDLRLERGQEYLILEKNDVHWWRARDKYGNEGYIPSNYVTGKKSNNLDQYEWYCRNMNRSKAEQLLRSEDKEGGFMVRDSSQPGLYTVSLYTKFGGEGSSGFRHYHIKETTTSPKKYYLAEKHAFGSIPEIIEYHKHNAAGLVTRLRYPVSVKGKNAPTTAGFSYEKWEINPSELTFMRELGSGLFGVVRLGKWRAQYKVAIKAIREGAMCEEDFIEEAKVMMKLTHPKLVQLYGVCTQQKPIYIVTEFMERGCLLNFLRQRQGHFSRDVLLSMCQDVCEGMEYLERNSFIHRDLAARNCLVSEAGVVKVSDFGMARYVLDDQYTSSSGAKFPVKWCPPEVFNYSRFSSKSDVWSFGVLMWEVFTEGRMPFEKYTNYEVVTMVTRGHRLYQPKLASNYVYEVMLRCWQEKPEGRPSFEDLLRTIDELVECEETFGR", "UniProt P42336, sequence (whole entry, unmodified, looked up)": "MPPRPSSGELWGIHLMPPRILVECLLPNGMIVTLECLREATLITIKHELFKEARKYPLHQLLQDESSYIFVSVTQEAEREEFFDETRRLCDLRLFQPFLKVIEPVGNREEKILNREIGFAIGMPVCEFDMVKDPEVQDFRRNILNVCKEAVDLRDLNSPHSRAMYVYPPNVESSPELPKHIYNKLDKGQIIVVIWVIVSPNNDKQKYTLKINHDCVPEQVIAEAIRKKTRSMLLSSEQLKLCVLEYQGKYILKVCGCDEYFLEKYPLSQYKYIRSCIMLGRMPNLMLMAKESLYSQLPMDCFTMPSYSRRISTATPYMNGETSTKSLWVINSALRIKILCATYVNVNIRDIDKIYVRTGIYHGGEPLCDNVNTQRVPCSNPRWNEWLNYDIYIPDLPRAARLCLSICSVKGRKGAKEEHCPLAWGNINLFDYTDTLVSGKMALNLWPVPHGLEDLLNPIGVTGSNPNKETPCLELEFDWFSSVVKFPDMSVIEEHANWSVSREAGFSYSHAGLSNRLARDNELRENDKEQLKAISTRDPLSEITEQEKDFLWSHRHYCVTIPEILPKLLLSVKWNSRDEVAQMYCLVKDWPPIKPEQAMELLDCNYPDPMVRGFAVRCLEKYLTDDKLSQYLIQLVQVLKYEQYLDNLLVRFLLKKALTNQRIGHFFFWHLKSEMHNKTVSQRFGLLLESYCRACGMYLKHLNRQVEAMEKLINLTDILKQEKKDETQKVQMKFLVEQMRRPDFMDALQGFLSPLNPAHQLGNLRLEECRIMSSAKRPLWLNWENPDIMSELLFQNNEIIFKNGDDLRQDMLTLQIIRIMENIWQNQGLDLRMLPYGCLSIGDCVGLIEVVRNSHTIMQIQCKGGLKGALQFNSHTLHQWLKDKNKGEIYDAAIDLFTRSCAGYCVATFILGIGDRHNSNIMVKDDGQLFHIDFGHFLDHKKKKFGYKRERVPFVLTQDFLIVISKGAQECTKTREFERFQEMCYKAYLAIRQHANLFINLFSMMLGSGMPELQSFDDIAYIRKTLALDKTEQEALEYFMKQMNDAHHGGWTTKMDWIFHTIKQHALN"}
{"data": "Sample 1", "Structure (SMILES)": "O=C(Nc1ccc(Oc2ccc(F)cc2)cc1)N1CCc2ncccc2[C@H]1c1ccc(F)cc1", "method": "competition with immobilised ligand", "tested at": "1 µM"}
{"target": "SYK (Homo sapiens, UniProt P43405)", "observed": "cell-free assay", "remaining binding": "91%"}
{"target": "DAPK1 (Homo sapiens, UniProt P53355)", "observed": "cell-free assay", "remaining binding": "87%"}
{"target": "IGF1R (Homo sapiens, UniProt P08069)", "observed": "cell-free assay", "remaining binding": "100%"}
{"target": "PNCK (Homo sapiens, UniProt Q6P2M8)", "observed": "cell-free assay", "remaining binding": "96%"}
{"target": "PAK5 (Homo sapiens, UniProt Q9P286)", "observed": "cell-free assay", "remaining binding": "100%"}
{"target": "RET (Homo sapiens, UniProt P07949, V804M)", "observed": "cell-free assay", "remaining binding": "94%"}
{"target": "MAP4K1 (Homo sapiens, UniProt Q92918)", "observed": "cell-free assay", "remaining binding": "100%"}
{"target": "MAP4K3 (Homo sapiens, UniProt Q8IVH8)", "observed": "cell-free assay", "remaining binding": "90%"}
{"target": "CHEK1 (Homo sapiens, UniProt O14757)", "observed": "cell-free assay", "remaining binding": "100%"}
{"target": "TEK (Homo sapiens, UniProt Q02763)", "observed": "cell-free assay", "remaining binding": "100%"}
{"target": "ACVR2B (Homo sapiens, UniProt Q13705)", "observed": "cell-free assay", "remaining binding": "100%"}
{"target": "BRAF (Homo sapiens, UniProt P15056, V600E)", "observed": "cell-free assay", "remaining binding": "93%"}
{"target": "MAP3K7 (Homo sapiens, UniProt O43318)", "observed": "cell-free assay", "remaining binding": "89%"}
{"target": "FES (Homo sapiens, UniProt P07332)", "observed": "cell-free assay", "remaining binding": "100%"}
{"target": "EPHB6 (Homo sapiens, UniProt O15197)", "observed": "cell-free assay", "remaining binding": "70%"}
{"target": "CSF1R (Homo sapiens, UniProt P07333)", "observed": "cell-free assay", "remaining binding": "90%"}
{"target": "MAPK3 (Homo sapiens, UniProt P27361)", "observed": "cell-free assay", "remaining binding": "87%"}
{"target": "PIK3CB (Homo sapiens, UniProt P42338)", "observed": "cell-free assay", "remaining binding": "77%"}
{"target": "CSNK1G2 (Homo sapiens, UniProt P78368)", "observed": "cell-free assay", "remaining binding": "98%"}
{"target": "TYRO3 (Homo sapiens, UniProt Q06418)", "observed": "cell-free assay", "remaining binding": "99%"}
{"target": "PIK3CA (Homo sapiens, UniProt P42336, H1047L)", "observed": "cell-free assay", "remaining binding": "85%"}
{"target": "EPHB3 (Homo sapiens, UniProt P54753)", "observed": "cell-free assay", "remaining binding": "100%"}
{"target": "CSNK1G1 (Homo sapiens, UniProt Q9HCP0)", "observed": "cell-free assay", "remaining binding": "90%"}
{"target": "TEC (Homo sapiens, UniProt P42680)", "observed": "binding", "remaining binding": "86%"}
{"target": "PRKACB (Homo sapiens, UniProt P22694)", "observed": "cell-free assay", "remaining binding": "83%"}
{"data": "Sample 2", "SMILES": "C=CCc1ccc(O)c(-c2ccc(O)c(CC=C)c2)c1", "observed": "chloride current", "method": "whole-cell voltage clamp", "ANO1 del476-501/M544A": "Anoctamin-1 (ANO1, Homo sapiens, UniProt Q5XXA6, del476-501/M544A)", "UniProt Q5XXA6, sequence (whole entry, unmodified, looked up)": "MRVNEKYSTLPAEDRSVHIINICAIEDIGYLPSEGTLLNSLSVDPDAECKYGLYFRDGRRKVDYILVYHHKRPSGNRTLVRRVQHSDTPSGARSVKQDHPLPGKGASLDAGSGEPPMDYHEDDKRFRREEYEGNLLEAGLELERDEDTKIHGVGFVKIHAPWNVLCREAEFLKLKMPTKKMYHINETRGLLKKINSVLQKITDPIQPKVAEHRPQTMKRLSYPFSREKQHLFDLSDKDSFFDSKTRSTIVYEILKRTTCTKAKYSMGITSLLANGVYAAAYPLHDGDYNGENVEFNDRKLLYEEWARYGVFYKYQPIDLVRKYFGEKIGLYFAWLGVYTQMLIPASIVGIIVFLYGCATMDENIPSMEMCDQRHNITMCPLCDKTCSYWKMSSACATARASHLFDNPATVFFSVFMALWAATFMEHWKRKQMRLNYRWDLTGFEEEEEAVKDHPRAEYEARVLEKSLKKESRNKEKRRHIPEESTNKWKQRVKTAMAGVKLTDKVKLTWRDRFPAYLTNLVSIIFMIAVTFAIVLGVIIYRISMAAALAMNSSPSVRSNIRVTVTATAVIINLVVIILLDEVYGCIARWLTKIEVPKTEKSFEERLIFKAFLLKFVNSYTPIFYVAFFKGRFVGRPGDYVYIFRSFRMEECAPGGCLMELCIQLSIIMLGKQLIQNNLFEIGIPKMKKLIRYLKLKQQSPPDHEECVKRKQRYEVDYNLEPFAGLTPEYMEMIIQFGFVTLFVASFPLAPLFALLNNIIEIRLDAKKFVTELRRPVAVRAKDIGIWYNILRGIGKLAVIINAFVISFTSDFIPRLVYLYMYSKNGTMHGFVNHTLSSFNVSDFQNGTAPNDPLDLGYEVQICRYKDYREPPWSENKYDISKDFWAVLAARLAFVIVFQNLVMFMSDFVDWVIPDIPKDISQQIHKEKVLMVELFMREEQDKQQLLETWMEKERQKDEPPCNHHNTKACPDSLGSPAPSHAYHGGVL"}
{"target": "ANO1 del476-501/M544A", "notes": "membrane voltage -100 mV", "pIC50": 5.31}
{"target": "Anoctamin-1 (ANO1, Homo sapiens, UniProt Q5XXA6, del476-501/F803A)", "notes": "membrane voltage -80 mV", "pIC50": 4.68}
{"target": "Anoctamin-1 (ANO1, Homo sapiens, UniProt Q5XXA6, del476-501/F803W)", "mode": "inhibitor", "tested at": "80 mV holding voltage", "pIC50": 5.20}
{"target": "Anoctamin-1 (ANO1, Homo sapiens, UniProt Q5XXA6, del476-501/F627A)", "notes": "membrane voltage 100 mV", "pIC50": 5.12}
{"target": "Anoctamin-1 (ANO1, Homo sapiens, UniProt Q5XXA6, del476-501/F807I)", "mode": "inhibitor", "notes": "F781I mutant at -20 mV", "pIC50": 5.16}
{"target": "ANO1 del476-501/M544A", "notes": "membrane voltage 100 mV", "pIC50": 5.34}
{"target": "Anoctamin-1 (ANO1, Homo sapiens, UniProt Q5XXA6, D383A/del476-501)", "notes": "membrane voltage -100 mV", "pIC50": 4.66}
{"target": "Anoctamin-1 (ANO1, Homo sapiens, UniProt Q5XXA6, del476-501/F803I)", "mode": "inhibitor", "tested at": "60 mV holding voltage", "pIC50": 5.15}
{"target": "Anoctamin-1 (ANO1, Homo sapiens, UniProt Q5XXA6, del476-501/R631D)", "mode": "inhibitor", "notes": "R605D mutant at 60 mV", "pIC50": 4.62}
{"target": "Anoctamin-1 (ANO1, Homo sapiens, UniProt Q5XXA6, del476-501/R631I)", "mode": "inhibitor", "notes": "R605I mutant at -20 mV", "pIC50": 4.67}
{"data": "Sample 3", "cell line": "mouse MPNST tumor cells", "method": "high-content immunofluorescence imaging", "measured": "nuclear SOX9", "tested at": "10 µM", "time": "12 h", "notes": "mean of 2 replicates", "baseline": "DMSO control", "reading": "higher = more nuclear SOX9"}
{"SMILES": "CCOc1ccc2c(c1)C(C)=CC(C)(C)N2", "nuclear SOX9 intensity": "105 % of DMSO"}
{"SMILES": "Clc1ccc(Nc2nnc(Cc3ccncc3)c3ccccc23)cc1", "nuclear SOX9 intensity": "91.9 % of DMSO and 110 % of DMSO"}
{"SMILES": "Nc1nc2c(c(N3CC[C@@H](N)C3)n1)CCCc1ccccc1-2", "nuclear SOX9 intensity": "170 % of DMSO"}
{"SMILES": "NCCC(O)(P(=O)(O)O)P(=O)(O)O", "nuclear SOX9 intensity": "93.4 % of DMSO"}
{"SMILES": "CCc1ccc(C=CC(=O)Nc2ccc(C(C)=O)cc2)o1", "nuclear SOX9 intensity": "108 % of DMSO"}
{"SMILES": "Cc1nc2n(c(=O)c1CCN1CCC(c3noc4cc(F)ccc34)CC1)CCCC2O (stereo not shown)", "nuclear SOX9 intensity": "112 % of DMSO"}
{"SMILES": "NS(=O)(=O)c1cc2c(cc1Cl)N=CNS2(=O)=O", "nuclear SOX9 intensity": "107 % of DMSO"}
{"SMILES": "CN(C(=O)CCCOc1ccc2[nH]c(=O)ccc2c1)C1CCCCC1", "nuclear SOX9 intensity": "120 % of DMSO"}
{"SMILES": "O=C(c1ccc(F)cc1)N1CCc2nc(COc3ccccc3)oc2C1", "nuclear SOX9 intensity": "96.3 % of DMSO"}
{"SMILES": "COC(=O)CC1CC(c2ccc(O)cc2)=NO1 (stereo not shown)", "nuclear SOX9 intensity": "98.5 % of DMSO"}
{"SMILES": "Cc1ncc(C[n+]2csc(CCO)c2C)c(N)n1", "nuclear SOX9 intensity": "91.1 % of DMSO"}
{"SMILES": "CCCOc1ccc2[nH]c(NC(=O)OC)nc2c1", "nuclear SOX9 intensity": "146 % of DMSO"}
{"SMILES": "O=C(Cn1ccnc1[N+](=O)[O-])NCCO", "nuclear SOX9 intensity": "101 % of DMSO"}
{"data": "Sample 4", "SMILES": "Cc1sc(C(=O)NC2COC2)cc1-n1cc(NC(=O)Nc2c(F)cccc2Cl)cn1", "observed": "enzyme activity", "tested at": "10 µM", "baseline": "untreated control"}
{"target": "MAP2K6 (Homo sapiens, UniProt P52564)", "remaining activity [%]": 85.4}
{"target": "PRKCD (Homo sapiens, UniProt Q05655)", "remaining activity [%]": 95.1}
{"target": "YES1 (Homo sapiens, UniProt P07947)", "remaining activity [%]": 81.2}
{"target": "CSK (Homo sapiens, UniProt P41240)", "remaining activity [%]": 94.9}
{"target": "Cyclin-dependent kinase 1, with cyclin E (CDK1, Homo sapiens, UniProt P06493)", "remaining activity [%]": 97.1}
{"target": "WNK3 (Homo sapiens, UniProt Q9BYP7)", "remaining activity [%]": 101}
{"target": "DAPK3 (Homo sapiens, UniProt O43293)", "remaining activity [%]": 99.5}
{"target": "KSR2 (Homo sapiens, UniProt Q6VAB6)", "remaining activity [%]": 94.2}
{"target": "STK3 (Homo sapiens, UniProt Q13188)", "remaining activity [%]": 92.8}
{"target": "CDK14 (Homo sapiens, UniProt O94921)", "remaining activity [%]": 95.3}
{"target": "ERN2 (Homo sapiens, UniProt Q76MJ5)", "remaining activity [%]": 67.8}
{"target": "ULK3 (Homo sapiens, UniProt Q6PHR2)", "remaining activity [%]": 99.5}
{"target": "PKN3 (Homo sapiens, UniProt Q6P5Z2)", "remaining activity [%]": 97.9}
{"note": "Some of these lines once more (sample 1):"}
{"target": "RET (Homo sapiens, UniProt P07949, V804M)", "observed": "cell-free assay", "remaining binding": "94%"}
{"target": "ACVR2B (Homo sapiens, UniProt Q13705)", "observed": "cell-free assay", "remaining binding": "100%"}
{"target": "CSNK1G1 (Homo sapiens, UniProt Q9HCP0)", "observed": "cell-free assay", "remaining binding": "90%"}
{"target": "TEK (Homo sapiens, UniProt Q02763)", "observed": "cell-free assay", "remaining binding": "100%"}
{"target": "EPHB6 (Homo sapiens, UniProt O15197)", "observed": "cell-free assay", "remaining binding": "70%"}
{"target": "PRKACB (Homo sapiens, UniProt P22694)", "observed": "cell-free assay", "remaining binding": "83%"}
